Assay results of several laboratories.
Lines come from different studies, so protocols differ.
Target: Histone deacetylase 3 (HDAC3, Homo sapiens, UniProt O15379)
Sequence of UniProt O15379 (whole entry, looked up): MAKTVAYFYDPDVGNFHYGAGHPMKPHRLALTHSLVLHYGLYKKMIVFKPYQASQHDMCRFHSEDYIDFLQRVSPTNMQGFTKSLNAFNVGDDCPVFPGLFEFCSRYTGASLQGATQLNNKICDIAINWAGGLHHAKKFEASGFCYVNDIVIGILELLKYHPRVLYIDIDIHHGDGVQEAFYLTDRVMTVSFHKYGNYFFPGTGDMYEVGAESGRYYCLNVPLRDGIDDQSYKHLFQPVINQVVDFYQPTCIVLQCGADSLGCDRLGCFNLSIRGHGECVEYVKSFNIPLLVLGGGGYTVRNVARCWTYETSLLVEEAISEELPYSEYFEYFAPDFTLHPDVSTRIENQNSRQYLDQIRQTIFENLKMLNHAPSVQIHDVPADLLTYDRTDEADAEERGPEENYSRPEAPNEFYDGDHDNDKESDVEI
Mode: inhibitor

O=C(CCCCCCN(Cc1cc2ccccc2[nH]1)Cc1cc2ccccc2[nH]1)NO
IC50 (enzyme activity, fluorescence): 1.3 µM

O=c1c2ccccc2on1-c1ccccc1
IC50 (enzyme activity): > 10 µM

O=C(/C=C/c1ccc2c(c1)CCN(Cc1ccccc1)C2=O)NO
IC50 (enzyme activity): 0.37 µM

Nc1ccc(-c2ccc(F)cc2)cc1NC(=O)N1CCC1
IC50 (enzyme activity): 1.75 µM

O=C(NNCCCc1ccccc1)c1ccc(Br)cc1
IC50 (enzyme activity): 24.2 µM

O=C(CCCCCCNCc1cccnc1)NO
IC50 (enzyme activity, fluorescence): 0.31 µM

O=C(CCCCCCC(=O)Nc1ccccc1-[c-]1cccc1)NO.[Fe+2].c1cc[cH-]c1
IC50 (enzyme activity, fluorescence): 0.008 µM

O=C(CCCCCCNCc1ccc2c(c1)OCO2)NO
IC50 (enzyme activity, fluorescence): 0.17 µM

O=c1c2ccccc2[s+]([O-])n1-c1ccccc1 (centres unmarked)
IC50 (enzyme activity): > 10 µM

Cc1cc(CNCCCCCCC(=O)NO)ccc1F
IC50 (enzyme activity, fluorescence): 0.19 µM

O=C(CCCCCCC(=O)NC[c-]1cccc1)NO.[Fe+2].c1cc[cH-]c1
IC50 (enzyme activity, fluorescence): 0.072 µM

COCc1cc2c(cn1)CN(C(=O)Nc1nc(-c3ccc(F)cc3)ccc1N)C2
IC50 (deacetylase activity; co-expressed with NCOR2): > 30 µM

O=C(CCCCCCNc1ccc(C(=O)Nc2ccc(Cl)c(NC(=O)c3cccc(Cl)c3)c2)cn1)NO
IC50 (enzyme activity, fluorescence; lysate): 0.0714 µM

COC(=O)c1ccc(Cn2sc3ccccc3c2=O)cc1
IC50 (enzyme activity): 8.2 µM

Cc1cc(CN(CCCCCCC(=O)NO)Cc2ccc(F)c(C)c2)ccc1F
IC50 (enzyme activity, fluorescence): 4.7 µM

Nc1ccc(-c2cccs2)cc1NC(=O)c1ccccc1
IC50 (enzyme activity): 1.68 µM

O=c1[nH]sc2ccccc12
IC50 (enzyme activity): > 10 µM

O=C(CCCCCCNCc1ccc([N+](=O)[O-])cc1)NO
IC50 (enzyme activity, fluorescence): 1 µM

Nc1ccc(-c2ccc(F)cc2)cc1NC(=O)C1CCC1
IC50 (enzyme activity): 0.548 µM

Cn1cc2c(n1)CN(C(=O)Nc1nc(-c3ccc(F)cc3)ccc1N)C2
IC50 (deacetylase activity; co-expressed with NCOR2): 20.2 µM
